Assay results pooled from the literature.
Every numbered part comes from another study and shows a few of its results, in no order. Several values in a cell are separate wells, animals, samples, runs or records.

Set 1
Target: Ras GTPase-activating protein-binding protein 1, RRM domain (G3BP1, Homo sapiens, UniProt Q13283)
Chain of UniProt Q13283 (whole entry, looked up): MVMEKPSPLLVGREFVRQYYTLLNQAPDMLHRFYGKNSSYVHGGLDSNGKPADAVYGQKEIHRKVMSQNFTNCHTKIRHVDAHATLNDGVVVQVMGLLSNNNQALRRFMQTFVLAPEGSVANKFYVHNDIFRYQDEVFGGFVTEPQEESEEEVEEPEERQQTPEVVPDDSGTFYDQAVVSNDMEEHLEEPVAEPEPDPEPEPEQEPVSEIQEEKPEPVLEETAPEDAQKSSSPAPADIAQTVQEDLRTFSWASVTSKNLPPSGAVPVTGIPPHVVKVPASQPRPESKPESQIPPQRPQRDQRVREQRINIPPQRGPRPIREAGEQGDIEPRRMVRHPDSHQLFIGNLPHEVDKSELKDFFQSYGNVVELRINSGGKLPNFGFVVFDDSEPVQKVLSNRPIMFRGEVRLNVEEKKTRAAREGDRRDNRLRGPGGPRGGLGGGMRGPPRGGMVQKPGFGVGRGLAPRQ
Method: RNA Bind-n-Seq
Form: RNA
Medium: in vitro
Tested at: 1 µM
Setting: whole 134-nt RNA, ends assumed
Added: 150 mM KCl
Baseline: input library
Direction: higher = stronger binding
Constant ends, left off below: GGGAGUUCUACAGUCCGACGAUC … UGGAAUUCUCGGGUGUCAAGG
Sequence | log2 enrichment
CACAGACAACACGCAGCCACACAGACACAGAGGGAAGGGGUUGGGAUGGGGACAGGGUGCACAGCAGGGCGGGGUAGGACCCCAGCCCCU | -0.0974
GCAGGAAGUAAAAACAAAUGGAAAUGAUUCGGAUAGUGGCAGGGGUGGGGGUUGCUAAGGAAAGGGUGGGAUGGGAGUGGGUAAAGAGUU | 1.19
UGGACUGCCUAUGGAAGAAGAAGUUCAAGAAGGAGCACGAGGAGUUUGAGACCAUGGAGAACGUGAACCGCCUUCUUCUGGAGAACGUCC | -0.173
UCCUGUGCUACACAUCGUAUGUACCGAAUCGGGGUUUUUGGGGUUUUUGGGUUUUUGGGGAAAGUAUUAUGUUACGCCGUUCGGAUCUGC | 0.107
AGUCCUGUGCUACACAUCGUAUGUACCGAAUCGGCCCCCGGGCCCCCGGCCCCCGGGAAAGUAUUAUGUUACGCCGUUCGGAUCUGCACU | -0.474
GCAGGAAGUAAAAACAAAUGGAAAUGCUUCGGAUAGUGGCAGGGGUGGGGGUUGCUAAGGAAAGGGUGGAAUGGGAGUGGGUAAAGAGUU | 1.36
AGUCCUGUGCUACACAUCGUAUGUACCGAAUCGGAAAAAGGAAAAAGGAAAAAAAGGAAAGUAUUAUGUUACGCCGUUCGGAUCUGCACU | 0.122
UCCUGUGCUACACAUCGUAUGUACCGAAUCGGGGUUUUUUGGUUUUUUGGUUUUUUGGGAAAGUAUUAUGUUACGCCGUUCGGAUCUGCA | -0.178

Set 2
Target: Myc proto-oncogene protein, bHLH-zipper, MAX partner unstated (MYC, Homo sapiens, UniProt P01106, residues 368-449)
Chain of UniProt P01106 (368-449, looked up): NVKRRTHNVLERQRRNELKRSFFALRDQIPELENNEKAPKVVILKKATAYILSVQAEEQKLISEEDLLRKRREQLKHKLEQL
Method: protein-binding microarray
Form: double-stranded DNA, one strand shown
Medium: in vitro
Tested at: not given
Setting: k-mer, scored over probes, only values ≥0.25
Direction: higher = stronger binding
Sequence | E-score
CATGCACC | 0.393
AAAGCACA | 0.291
CGTGCTTC | 0.359
CGTGTACC | 0.402

Set 3
Target: Replicase polyprotein 1ab, nsp13 helicase (rep, Severe acute respiratory syndrome coronavirus 2, UniProt P0DTD1)
Mode: inhibitor
Tested at: 20 µM
Compound | inhibition
C[C@@H](O[C@H]1OCCN(Cc2n[nH]c(=O)[nH]2)[C@H]1c1ccc(F)cc1)c1cc(C(F)(F)F)cc(C(F)(F)F)c1 | 1.21%
COc1cc2c(NC3CCN(C(C)C)CC3)nc(C3CCCCC3)nc2cc1OCCCN1CCCC1 | 25.5%
CC(C)CN(C[C@@H](O)[C@H](Cc1ccccc1)NC(=O)O[C@H]1CO[C@H]2OCC[C@H]21)S(=O)(=O)c1ccc(N)cc1 | 6.2%
CNC(=C[N+](=O)[O-])NCCSCc1csc(CN(C)C)n1 | 4.66%
O=C(O)[C@@H](O)[C@H](O)[C@H](O)[C@@H](O)C(=O)O | -0.82%
CCOC(=O)Nc1cc2c(c(N)n1)N=C(c1ccccc1)[C@H](C)N2 | 7.38%
CC(C)Nc1cc(-c2c[nH]c(C(=O)N[C@H](CO)c3cccc(Cl)c3)c2)c(Cl)cn1 | 7.46%
CO[C@@H](C)Cn1c(=O)n(C)c2cnc3ccc(-c4cncc(C(C)(C)O)c4)cc3c21 | 1.43%
CN(C)CCc1c[nH]c2ccc(Cn3cncn3)cc12 | 4.5%
O=C(O)COc1ccc(/C=C2\SC(=O)NC2=O)cc1 | 2.65%
NCCc1c[nH]c2ccc(C(N)=O)cc12 | 5.69%
O=C(CCc1ccncc1)NNC(=O)N1Cc2ccccc2Oc2ccc(Cl)cc21 | 0.8%
N#CC(c1ccccc1)(c1ccccc1)c1ccccc1Cl | 8.72%
Nc1ccc(O)c(C(=O)O)c1 | -3.14%
CC(=O)Nc1c(I)c(C(=O)O)c(I)c(N(C)C(C)=O)c1I | -5.17%
COC(=O)c1cc(OC)c2c(c1-c1c(CO)cc(OC)c3c1OCO3)OCO2 | 3.3%
Oc1cc2c(cc1O)[C@H]1c3ccccc3CN[C@@H]1CC2 (racemic) | -0.42%
c1ccc2c(c1)OCC(C1=NCCN1)O2 (stereo not shown) | 7.11%
COc1cc(/C=C/C(=O)O)ccc1O | 4.55%
NC(=O)c1ccc(-c2nc(-c3ccccn3)c(-c3ccc4c(c3)OCO4)[nH]2)cc1 | 13.5%
CC(C)[C@@H]1C(=O)N(S(C)(=O)=O)[C@@H]2CCN(C(=O)/C=C/CN3CCCCC3)[C@H]21 | 7.03%
CN(C)CCOc1ccc(-c2nc(-c3ccncc3)c(-c3ccc4c(c3)CC/C4=N\O)[nH]2)cc1 | 3.04%
N=C(N)NCCN1CCCCCCC1 | 7.36%
CNC(=O)[C@@H](NC(=O)[C@H](CC(C)C)[C@H](O)C(=O)NO)C(C)(C)C | 1.78%
CCC[C@@H]1C[C@@H](C(=O)N[C@@H]([C@H]2O[C@H](SC)[C@H](O)[C@@H](O)[C@H]2O)[C@@H](C)O)N(C)C1 | 5.07%

Set 4
Target: Histone acetyltransferase KAT6A, both winged helices, GST fusion (KAT6A, Homo sapiens, UniProt Q92794, residues 1-181)
Method: protein binding microarray
Form: double-stranded DNA, one strand shown
Medium: in vitro
Tested at: not given
Setting: 8-mer, flanks averaged, mean of 2 arrays, mostly near background
Baseline: not given
Direction: higher = stronger binding
Residues (chain): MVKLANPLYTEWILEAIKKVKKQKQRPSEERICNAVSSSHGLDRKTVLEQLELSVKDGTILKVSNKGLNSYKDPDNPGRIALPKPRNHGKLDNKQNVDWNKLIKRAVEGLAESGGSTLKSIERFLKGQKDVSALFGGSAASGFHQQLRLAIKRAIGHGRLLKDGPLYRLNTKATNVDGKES
Sequence | E-score
CATACGCC | 0.155
AGTCCCTG | -0.16
AAAAGTTT | -0.0477
ACGGAATG | 0.0893
ATGTGCAC | -0.0654
CCCACACG | 0.0694
CAGCAAGC | -0.126
GTAATGAC | 0.0141

Set 5
Cell line: HEK-293T
Observed: pseudovirus infection
Method: FDA-approved drug library screen
Organism: VSV pseudotyped with SARS-CoV-2 spike
Tested at: 10 µM
Time: 16 h
Baseline: vehicle-treated
SMILES | GFP-positive cells [%]
C[C@H](CCC(=O)O)[C@H]1CC[C@H]2[C@@H]3[C@H](O)C[C@@H]4C[C@H](O)CC[C@]4(C)[C@H]3CC[C@]12C | 97.1
O=C(c1ccc(OCCN2CCCCC2)cc1)c1c(-c2ccc(O)cc2)sc2cc(O)ccc12 | 9.66
O=C(O)c1ccccc1O | 94.8
Cn1nnc2c(C(N)=O)ncn2c1=O | 89.3
COc1ccc2nc(SCc3ncc(C)c(OC)c3C)[nH]c2c1 | 91.2

Set 6
Organism: SARS-CoV-2
Observed: cytopathic effect
Cell line: Vero E6
Tested at: 10 µM
SMILES | inhibition
CCn1c(-c2nonc2N)nc2cnc(Oc3cccc(NC(=O)c4ccc(OCCN5CCOCC5)cc4)c3)cc21 | -13.9%
CN1CCN(C2=C(Cl)C(=O)N(c3ccc(Cl)c(Cl)c3)C2=O)CC1 | -10.3%
O=C1C=CC(=O)C2=C1C1c3ccccc3C2c2ccccc21 | 3.2%
O=C(/C=C/c1ccc(O)c(O)c1)O[C@H](Cc1ccc(O)c(O)c1)C(=O)O | 8.3% and -4.6%
CC[C@]12C=CCN3CC[C@@]4(c5cc([C@@]6(C(=O)OC)C[C@@H]7C[C@@H](C(C)(F)F)C[N@](CCc8c6[nH]c6ccccc86)C7)c(OC)cc5N(C)[C@H]4[C@@](O)(C(=O)OC)[C@@H]1OC(C)=O)[C@@H]32 | 0.6%

For quick reference, copied from above (set 3):
Compound | inhibition
C[C@@H](O[C@H]1OCCN(Cc2n[nH]c(=O)[nH]2)[C@H]1c1ccc(F)cc1)c1cc(C(F)(F)F)cc(C(F)(F)F)c1 | 1.21%
c1ccc2c(c1)OCC(C1=NCCN1)O2 (stereo not shown) | 7.11%
COc1cc(/C=C/C(=O)O)ccc1O | 4.55%
CNC(=O)[C@@H](NC(=O)[C@H](CC(C)C)[C@H](O)C(=O)NO)C(C)(C)C | 1.78%
N=C(N)NCCN1CCCCCCC1 | 7.36%
CC(C)CN(C[C@@H](O)[C@H](Cc1ccccc1)NC(=O)O[C@H]1CO[C@H]2OCC[C@H]21)S(=O)(=O)c1ccc(N)cc1 | 6.2%
CC(C)Nc1cc(-c2c[nH]c(C(=O)N[C@H](CO)c3cccc(Cl)c3)c2)c(Cl)cn1 | 7.46%
